Measured values gathered from unrelated publications.
Protocols differ between the studies behind these lines. ± marks the error that the study gave.

Structure (SMILES)	assay	test system	conditions	scale	Cmax
CCN1CCN(Cc2ccc(Nc3ncc(F)c(-c4cc(F)c5nc(C)n(C(C)C)c5c4)n3)nc2)CC1	–	healthy human, fasted	oral, 150 mg, 3 x 50 mg tablets	–	0.0977 µg/mL
Cn1c(=O)oc2ccc(-c3ccc(C[C@@H](C#N)NC(=O)[C@@H]4CNCCCO4)cc3)cc21	–	human, mild renal impairment, plasma	oral, 25 mg single dose, mean	–	0.183 µg/mL
Cc1ccc(=O)n(-c2ccccc2)c1	–	healthy human	oral, 600 mg single, alone	–	12.2 µg/mL
N#CCNC(=O)c1ccc(-c2ccnc(Nc3ccc(N4CCOCC4=O)cc3)n2)cc1	–	healthy human volunteers, plasma	100 mg momelotinib once daily, day 7, fed, momelotinib alone	–	0.228 µg/mL
CC(=O)c1cc(C(=O)N[C@@H](C)Cn2ccc(-c3ccc(C#N)c(Cl)c3)n2)[nH]n1	–	healthy male human, plasma	intravenous infusion, 100 µg 14C-labelled, 15 min infusion, microtracer, geometric mean	–	2350 pg eq/mL
C=CC(=O)N1CCC[C@@H](n2c(=O)n(-c3ccc(Oc4ccccc4)cc3)c3c(N)nccc32)C1	–	human, fasted, plasma	oral, 240 mg, geometric mean	–	0.0654 µg/mL
Nc1ccn([C@@H]2O[C@H](CO)[C@@H](O)C2(F)F)c(=O)n1	HPLC-UV	human, plasma	intravenous, 800 mg/m^2, mean, before paricalcitol	–	17.7 µg/mL
Cc1nc2ccc(F)cc2n1-c1nc(N)c(F)c(Nc2ccc(C(F)(F)F)cc2)n1	–	human patients, plasma	oral, 400 mg twice weekly, cycles 1 and 2 pooled	–	2.21 µg/mL
NC1(C(=O)N[C@@H](CCO)c2ccc(Cl)cc2)CCN(c2ncnc3[nH]ccc23)CC1	–	human patients, plasma	oral, 320 mg twice daily, day 8	–	0.982 µg/mL
C=CC(=O)NC1CCN(c2ncc3ncnc(Nc4ccc(Oc5ccc6c(c5)ncn6C)c(C)c4)c3n2)CC1	–	human, male, plasma	oral, 240 mg single dose, fasted, geometric mean	–	3.7 µM
Cc1ccc(C(=O)NC2CC2)cc1-n1ncc(C(=O)c2cccc(C#N)c2)c1N	–	healthy human	oral, 30 mg single, mean	–	0.327 µg/mL
Cc1nc(-c2ccc(OCC(C)C)c(C#N)c2)sc1C(=O)O	–	human, plasma	oral, 10 mg once daily, added: verinurad 5 mg	–	0.24 µg/mL
COc1cc2ncnc(Nc3ccc(F)c(Cl)c3)c2cc1NC(=O)/C=C/CN1CCCCC1	measured: total drug	human, severe hepatic impairment, plasma	single dose, NCI classification	–	0.0125 µg/mL
CCCOc1ccc(NC(=O)CN2CCN(C)CC2)cc1-c1nc(CC)c(CC)c(=O)[nH]1	–	human, fasting, plasma	oral, 10 mg, added: placebo	–	0.0568 ± 0.0151 µg/mL
C[C@H](CCC(=O)O)[C@H]1CC[C@H]2[C@@H]3[C@H](O)C[C@@H]4C[C@H](O)CC[C@]4(C)[C@H]3CC[C@]12C	–	human, plasma	oral, dose not given	relative to: untreated	1.24 ± 0.293 µM
Cn1nnc2c(C(N)=O)ncn2c1=O	–	human patients, plasma	oral, 40 mg/m2, day 5, dose level DL5, median, added: talazoparib 600 µg/m2	–	1.6 µg/mL
CCCCCCCOc1ccc(CCC(N)(CO)CO)cc1C(F)(F)F.Cl	–	healthy human, male, plasma	0.5 mg, multiple doses, day 1	–	0.000247 µg/mL
Cn1nc2c(=O)n(C3CC3)cnc2c1[C@](O)(c1cnc(C(F)(F)F)c(Cl)c1)C(F)(F)F	–	humanized SCID mice, blood	10 mg/kg once daily, 6 days, infected	–	4.98 µM
CC(=O)O.NC(=O)c1cnc(N[C@@H]2CCCC[C@@H]2N)nc1Nc1cccc(-n2nccn2)c1	–	human, plasma	oral, 11 mg once daily	–	0.0161 µg/mL
CO[C@@H]1[C@H](OC(=O)N2CC(CCN3CCOCC3)C2)CC[C@]2(CO2)[C@H]1[C@@]1(C)O[C@@H]1CC=C(C)C	–	humans, plasma	subcutaneous, 0.6 mg twice weekly, first dose	–	0.00187 ± 0.00109 µg/mL
